Measured values gathered from unrelated publications.
Numbered parts are unrelated; each lists some results of a single study.

Block 1
Target: Ras GTPase-activating protein-binding protein 1, full length (G3BP1, Homo sapiens, UniProt Q13283)
UniProt Q13283, sequence (whole entry, looked up): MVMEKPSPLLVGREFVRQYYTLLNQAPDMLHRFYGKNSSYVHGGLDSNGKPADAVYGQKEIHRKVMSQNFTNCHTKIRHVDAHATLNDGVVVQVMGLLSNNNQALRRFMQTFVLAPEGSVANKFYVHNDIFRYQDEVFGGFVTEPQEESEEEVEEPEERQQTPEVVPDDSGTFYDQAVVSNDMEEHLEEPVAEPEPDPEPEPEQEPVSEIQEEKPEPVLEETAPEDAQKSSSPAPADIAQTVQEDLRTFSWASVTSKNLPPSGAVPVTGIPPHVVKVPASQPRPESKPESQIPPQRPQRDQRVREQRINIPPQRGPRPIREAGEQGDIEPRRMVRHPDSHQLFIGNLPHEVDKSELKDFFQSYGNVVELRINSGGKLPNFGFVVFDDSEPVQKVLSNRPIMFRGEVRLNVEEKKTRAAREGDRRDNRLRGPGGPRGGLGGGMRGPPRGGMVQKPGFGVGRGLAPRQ
Method: RNA Bind-n-Seq
Molecule type: RNA
Sample: in vitro
Tested at: 200 nM
Notes: whole 134-nt RNA, ends assumed
Together with: 150 mM KCl
Reference: input library
Direction: higher = stronger binding
Endpoint: log2 enrichment
GGGAGUUCUACAGUCCGACGAUCUCCUGUGCUACACAUCGUAUGUACCGAAUCGGGUUUUUUUGGGAAAAAAAGGGUUUGGGAAAGUAUUAUGUUACGCCGUUCGGAUCUGCAUGGAAUUCUCGGGUGUCAAGG: -0.593
GGGAGUUCUACAGUCCGACGAUCUCAAGUCCUGUGCUACACAUCGUAUGUACCGAAUCGGAGGUUUUUGGUUUUUGGAAAGUAUUAUGUUACGCCGUUCGGAUCUGCACUUCCUGGAAUUCUCGGGUGUCAAGG: -1.08
GGGAGUUCUACAGUCCGACGAUCUCCUGUGCUACACAUCGUAUGUACCGAAUCGGGGAAAAAGGGGAAAAAGGGGUUUGGGGAAAGUAUUAUGUUACGCCGUUCGGAUCUGCAUGGAAUUCUCGGGUGUCAAGG: 0.773
GGGAGUUCUACAGUCCGACGAUCACCAUGCAGGUGGGCAAAUUUGGGAAGUGGGGCAAGGGGGGGAUAGGGAGGGGGGUAACACUUUGGGAACAGGUGGUCCCAGGUCGUUUCUGGAAUUCUCGGGUGUCAAGG: 1.09

Block 2
Target: Phosphate system positive regulatory protein PHO4, full length, GST-tagged (PHO4, Saccharomyces cerevisiae, UniProt P07270, residues 1-312)
Method: competition protein-binding microarray
Molecule type: double-stranded DNA, one strand shown
Sample: in vitro
Tested at: 2 µM
Notes: whole 60-bp probe, lowest competitor level
Together with: Cbf1 competitor, 0.05 µM
Direction: higher = stronger binding
Endpoint: fluorescence intensity
All sequences stand within: … GTCTTGATTCGCTTGACGCTGCTG
Residues (chain): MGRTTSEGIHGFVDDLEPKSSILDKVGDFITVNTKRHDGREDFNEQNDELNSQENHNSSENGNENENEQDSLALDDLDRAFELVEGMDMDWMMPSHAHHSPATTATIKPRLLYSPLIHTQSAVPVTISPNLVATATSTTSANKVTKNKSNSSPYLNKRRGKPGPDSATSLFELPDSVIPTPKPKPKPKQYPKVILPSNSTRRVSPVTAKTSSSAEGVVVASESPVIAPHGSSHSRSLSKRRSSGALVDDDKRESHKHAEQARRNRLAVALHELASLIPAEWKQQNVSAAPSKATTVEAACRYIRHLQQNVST
CTTCTGTAAATTTTTCACGTGGGTTGACGCGCCCCG: 12800 a.u.
CTAACGAAGGTTTGATCAGTGGGTGACAAGCCAAGT: 3330 a.u.
CAAGCCCCAAGTACCCACGTTGTTGAGGTGTTTTTT: 14000 a.u.
CAACAGCAGCAACATCACACGCAGAATTCACAACCA: 6680 a.u.
CCCTGCCGTCCTCAACACGTTGCACCATTTGATGTT: 12100 a.u.

Block 3
Target: PABPC1L2, full length, GST fusion (mouse, UniProt A0ABA7IW68)
Method: RNAcompete
Molecule type: RNA
Sample: in vitro
Tested at: 20 nM
Notes: 7-mer, probes averaged, single round
Reference: mean of 7-mers
Direction: higher = stronger binding
Endpoint: 7-mer Z-score
Residues (chain): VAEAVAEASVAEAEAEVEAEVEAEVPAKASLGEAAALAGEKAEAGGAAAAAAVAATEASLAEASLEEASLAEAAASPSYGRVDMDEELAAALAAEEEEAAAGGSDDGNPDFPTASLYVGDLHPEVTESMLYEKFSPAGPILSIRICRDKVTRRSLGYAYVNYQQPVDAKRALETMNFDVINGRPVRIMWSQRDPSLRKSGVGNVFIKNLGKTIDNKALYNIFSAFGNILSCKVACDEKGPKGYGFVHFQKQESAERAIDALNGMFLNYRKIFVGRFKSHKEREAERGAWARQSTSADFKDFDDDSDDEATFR
CUGACAC: -0.0844
AGGCUGC: -0.0844
UGCACGA: -0.104

Single results of other studies
PhoQ, residues 284 288 289 292 302 303 GNNTDL  fold induction (PhoP, residues 12 14 15 18 19 QWHVF (Escherichia coli, UniProt P23836); Sort-seq, measured: YFP reporter; E. coli; PhoQ-PhoP variant library, together with: 10 µM Mg2+; reference: high Mg2+ state, higher = stronger signaling): 3.59
